# Experimental data from different studies.
# Numbered parts are unrelated; each lists some results of a single study. Substitutions count along the parent as printed.

# Series 1
# Target: DDIT3, bZIP domain (human)
# Method: DHFR protein complementation
# Sample: yeast
# Setting: single substitutions, most at no-binding floor
# Baseline: wild-type JUN-FOS pair
# Direction: higher = stronger binding
# Parent: JUN, bZIP domain (human); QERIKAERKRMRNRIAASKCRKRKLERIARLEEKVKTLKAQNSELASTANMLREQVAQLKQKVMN; partner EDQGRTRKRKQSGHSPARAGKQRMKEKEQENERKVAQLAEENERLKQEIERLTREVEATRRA
Substitution,binding fitness [natural log]
S43F,-0.0122
S47Y,0.00503
N42K,-0.523
T37Q,0.169
S47G,-0.0174
S47L,0.0555
S43Y,-0.0195
V35S,-0.624
T37E,0.164
N42Y,-0.611
S43P,-1.22
L45F,-0.748
E54F,-0.277
L31G,-0.821

# Series 2
# Target: Centromere-binding protein 1, full length, N-terminal tag (CBF1, Saccharomyces cerevisiae, UniProt P17106, residues 1-351)
# Chain of UniProt P17106 (whole entry, looked up): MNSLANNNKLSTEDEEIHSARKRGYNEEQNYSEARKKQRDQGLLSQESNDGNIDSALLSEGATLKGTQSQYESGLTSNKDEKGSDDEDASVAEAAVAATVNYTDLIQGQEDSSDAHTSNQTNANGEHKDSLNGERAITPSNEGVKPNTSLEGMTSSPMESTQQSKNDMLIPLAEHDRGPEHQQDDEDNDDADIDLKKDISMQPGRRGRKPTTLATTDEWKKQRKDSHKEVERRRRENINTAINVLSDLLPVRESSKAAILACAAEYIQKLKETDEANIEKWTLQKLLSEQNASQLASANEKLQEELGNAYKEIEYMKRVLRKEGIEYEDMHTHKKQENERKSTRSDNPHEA
# Method: protein-binding microarray
# Form: double-stranded DNA, one strand shown
# Sample: in vitro
# Concentration: 0.8 µM
# Setting: whole 60-bp probe, no competitor
# Direction: higher = stronger binding
# Shared flanks, not repeated: … GTCTTGATTCGCTTGACGCTGCTG
Sequence,fluorescence intensity
CTAATCTAAATAATTAATGTGCACGTCAATATATTC,545 a.u.
CTAGTCTTATTTTGTTAGGTGATGATCTAATTTTTC,599 a.u.
GAATTTCCACCGTGTAAGGTGACGGGACTATGGTAG,541 a.u.
CTACGCGATCAGCCGCACATGTCCATTATCATTTTC,899 a.u.
CTAAAACCGTAATGTCACATTTTGCATATATCTTTC,609 a.u.
CTAGAGTGAGGAGAAAACGTGCAGTTAATAAAATTC,756 a.u.
GAATGAAATTCTGTGATCACAATTTTCCTCTAATAG,605 a.u.
GAATTATAGGTATTTTATGTCACGTACGGTTTTTAG,1360 a.u.
GAATGCCCTTCTCATCTGACCGCTACCCATATCTAG,560 a.u.
GAATCCAGTTAGGAGAGCGTGGTGTTCTCATCCTAG,508 a.u.
CTACCGTAGTCATCGTGACTGGTTGACGTATTATTC,786 a.u.
CTAATTTAGTGTTGCCACCAGATGGGTCTATTTTTC,497 a.u.
CTATGTGACATAATCCACGTTTGTCTCTTATCTTTC,515 a.u.

# Series 3
# Target: CCND3, cyclin fold, Cln2 fusion (human)
# Method: yeast growth competition, sequencing
# Sample: yeast
# Setting: weak parent motif
# Baseline: not given
# Direction: higher = stronger binding
# Parent: PPP1R3F docking peptide (human); VAPRRVLFADEAL; partner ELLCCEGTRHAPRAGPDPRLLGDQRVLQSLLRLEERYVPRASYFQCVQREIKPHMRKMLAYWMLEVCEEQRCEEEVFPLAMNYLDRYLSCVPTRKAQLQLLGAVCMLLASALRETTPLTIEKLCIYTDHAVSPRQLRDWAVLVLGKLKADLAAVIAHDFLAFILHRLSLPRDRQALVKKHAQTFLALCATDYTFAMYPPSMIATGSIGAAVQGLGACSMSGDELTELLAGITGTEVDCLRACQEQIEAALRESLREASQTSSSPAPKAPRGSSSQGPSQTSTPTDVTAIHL
Substitution,normalised enrichment score
VAPRRALFADEAL [V6A],0.0185
VAPRRVAFADEAL [L7A],0.148
VAPRRVLLADEAL [F8L],0.4
VAPARVLFADEAL [R4A],0.134
VAPRRVLAADEAL [F8A],0.0969
VAPRRVLFAAEAL [D10A],0.069

# Mixed results
Molecule,target,test,system,conditions,how to read,quantity,result
"PhoQ, residues 284 288 289 292 302 303 NLALSC","PhoP, residues 12 14 15 18 19 QQAYL (Escherichia coli, UniProt P23836)","Sort-seq, measured: YFP reporter",E. coli,"PhoQ-PhoP variant library, together with: 10 µM Mg2+","baseline: high Mg2+ state, higher = stronger signaling",fold induction,2.02

# Excerpt of the above (series 3):
Substitution,normalised enrichment score
VAPRRVAFADEAL [L7A],0.148
VAPRRVLLADEAL [F8L],0.4
VAPARVLFADEAL [R4A],0.134
VAPRRVLAADEAL [F8A],0.0969
